Published values from different studies.
± gives the spread as reported.

Structure (SMILES)	assay	test system	conditions	thermodynamic solubility
COc1ccc([N+](=O)[O-])cc1NC(=O)C(C)Oc1ccccc1C (centres unmarked)	–	aqueous buffer	pH 7.4	< 10.7 µM
Cn1cc(Nc2ncnc3ccc(-c4cccc(N5CCOCC5)c4)cc23)cn1	–	0.1 M phosphate buffer	pH 7.4, 25 °C	1.5 µM
COC(=O)Nc1nc2ccc(Sc3ccccc3)cc2[nH]1	shake-flask	Cremophor ELP	37 °C, water up to 0.5% w/w	1.75 ± 0.06 mg/g
COc1ccccc1NC(=O)CSc1nncn1C	–	aqueous buffer	pH 7.4	> 12100 µM
Clc1ccc(Nc2ncnc3ccc(-c4cccc(N5CCOCC5)c4)cc23)cc1Cl	–	0.1 M phosphate buffer	pH 7.4, 25 °C	4 µM
CC(Sc1nc2ccccc2[nH]1)C(=O)Nc1ccc(S(N)(=O)=O)cc1 (centres unmarked)	–	aqueous buffer	pH 7.4	20.8 µM
Cc1cc(-n2c(=O)[nH]c(=O)n(C)c2=O)ccc1Oc1ccc(SC(F)(F)F)cc1	shake-flask	Cremophor ELP	37 °C, water up to 0.5% w/w	10.7 ± 1.07 mg/g
c1cc(-c2ccc3ncnc(Nc4ncco4)c3c2)nc(N2C[C@H]3C[C@@H]2CO3)n1	–	0.1 M phosphate buffer	pH 7.4, 25 °C	48 µM
Cc1cc(C)c(S(=O)(=O)NCc2ccccn2)cc1C	–	aqueous buffer	pH 7.4	54.1 µM
CC(C)(Oc1ccc(C(=O)c2ccc(Cl)cc2)cc1)C(=O)O	shake-flask	Cremophor ELP	37 °C, water up to 0.5% w/w	39.5 ± 0.42 mg/g
C[C@@H]1CN(c2cccc(-c3ccc4ncnc(Nc5ncco5)c4c3)c2)C[C@H](C)O1	–	0.1 M phosphate buffer	pH 7.4, 25 °C	11 µM
COc1c(/C=C/c2ccc(NS(C)(=O)=O)cc2)cc(-n2ccc(=O)[nH]c2=O)cc1C(C)(C)C	–	50 mM sodium phosphate	48 h, pH 7.4, 25 °C, crystalline free acid	-7.7 log S
Cc1c(NS(=O)(=O)c2cccc3nonc23)c(=O)n(-c2ccccc2)n1C	–	aqueous buffer	pH 7.4	14.2 µM
CC[C@H](C)C(=O)N1CCC(NC(=O)Nc2ccc(OC(F)(F)F)c(F)c2)CC1	–	PEG 300	–	13.9 mg/mL
O=C(O)c1cc(-c2ccc(F)cc2F)ccc1O	shake-flask	Cremophor ELP	37 °C, water up to 0.5% w/w	139 ± 7.14 mg/g
O=C(Cn1nc(-c2cccc([N+](=O)[O-])c2)c2ccccc2c1=O)NCC1CCCO1 (centres unmarked)	–	aqueous buffer	pH 7.4	19.7 µM
Clc1ccccc1C(c1ccccc1)(c1ccccc1)n1ccnc1	shake-flask	Cremophor ELP	37 °C, water up to 0.5% w/w	33.2 ± 3.7 mg/g
C[C@H]1CN(c2cccc(-c3ccc4ncnc(Nc5ncco5)c4c3)c2)CCO1	–	0.1 M phosphate buffer	pH 7.4, 25 °C	6 µM
CCCCN(CCCC)CCC(O)c1cc2c(Cl)cc(Cl)cc2c2cc(C(F)(F)F)ccc12 (centres unmarked)	shake-flask	Cremophor ELP	37 °C, water up to 0.5% w/w	38.3 ± 1.6 mg/g
CC1(CNC(=O)c2ccc(-c3ccccc3)cc2)NC(=O)NC1=O (centres unmarked)	–	aqueous buffer	pH 7.4	40.1 µM
N[C@H](CNc1nc(-c2ccncc2)nc2sc3c(c12)CCCC3)Cc1ccccc1	–	aqueous medium	trihydrochloride salt	23100 µM
COc1cc(-c2nnc(SCC(N)=O)n2C)cc(OC)c1OC	–	aqueous buffer	pH 7.4	> 11100 µM
c1cc(-c2ccc3ncnc(Nc4ncco4)c3c2)cc(N2CC3CCC(C2)O3)c1	–	0.1 M phosphate buffer	pH 7.4, 25 °C	0.4 µM
C#C[C@]1(O)CC[C@H]2[C@@H]3CCc4cc(O)ccc4[C@H]3CC[C@@]21C	shake-flask	Cremophor ELP	37 °C, water up to 0.5% w/w	144 ± 14.4 mg/g
C[C@@H]1COCCN1c1cccc(-c2ccc3ncnc(Nc4ncco4)c3c2)c1	–	0.1 M phosphate buffer	pH 7.4, 25 °C	23 µM
O=C(Nc1ccc([N+](=O)[O-])cc1Cl)c1cc(Cl)ccc1O	shake-flask	Cremophor ELP	37 °C, water up to 0.5% w/w	47.9 ± 1.24 mg/g

For quick reference, copied from above:
Structure (SMILES)	assay	test system	conditions	thermodynamic solubility
C[C@@H]1COCCN1c1cccc(-c2ccc3ncnc(Nc4ncco4)c3c2)c1	–	0.1 M phosphate buffer	pH 7.4, 25 °C	23 µM
CC1(CNC(=O)c2ccc(-c3ccccc3)cc2)NC(=O)NC1=O (centres unmarked)	–	aqueous buffer	pH 7.4	40.1 µM
COc1ccccc1NC(=O)CSc1nncn1C	–	aqueous buffer	pH 7.4	> 12100 µM
c1cc(-c2ccc3ncnc(Nc4ncco4)c3c2)cc(N2CC3CCC(C2)O3)c1	–	0.1 M phosphate buffer	pH 7.4, 25 °C	0.4 µM
